Measured values gathered from unrelated publications.
Lines come from different studies, so protocols differ. ± gives the spread as reported.
UCHL1: Ubiquitin carboxyl-terminal hydrolase isozyme L1 (UCHL1, Homo sapiens, UniProt P09936)
Sequence of UniProt P09936 (whole entry, looked up): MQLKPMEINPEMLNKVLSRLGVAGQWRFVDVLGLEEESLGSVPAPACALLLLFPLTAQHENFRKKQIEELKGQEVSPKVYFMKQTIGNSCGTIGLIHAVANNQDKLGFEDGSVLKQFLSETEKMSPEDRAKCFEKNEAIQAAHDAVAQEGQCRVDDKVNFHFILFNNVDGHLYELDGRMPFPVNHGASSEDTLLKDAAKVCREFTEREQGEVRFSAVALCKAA

Compound	tested on	test	setting	scale	endpoint	result
CC(=O)c1nn(-c2ccc(Cl)cc2)/c(=N/N=C(\C)c2ccc(NC(=O)c3ccc(Cl)cc3)cc2)s1	HepG2	–	2.5 µM	–	toxicity	8.04%
CN(CCOc1ccc(CC2SC(=O)NC2=O)cc1)c1ccccn1 (stereo not drawn)	HepG2	extracellular flux, item: reserve respiratory capacity	6 h, distribution mode 2	–	point of departure	1.2 µM
Nc1ccn([C@H]2CC[C@@H](CO)O2)c(=O)n1	HepG2	qPCR	0.2 µM, 10 days, 1	reference: untreated	mitochondrial DNA content	76.9 ± 12.8%
Cc1c(C)c2c(c(C)c1O)CCC(C)(COc1ccc(CC3SC(=O)NC3=O)cc1)O2 (stereo not drawn)	HepG2	high content imaging, item: nuclear size	24 h, distribution mode 1	–	point of departure	37.2 µM
Cc1nc2ccccc2n(CC(=O)Nc2ccc(C(=O)Nc3cccc(Cl)c3)cc2)c1=O	HepG2	Annexin V-FITC/PI staining	2.3 µM	–	late apoptotic cells	0.52 ± 0.09%
Cc1cc(C)c(-c2csc(NC(=O)CCl)n2)cc1C	UCHL1	covalent, intact protein LC-MS	12.5 µM	–	labelling	11.6%
COc1ccc(NC(=O)c2c(Nc3ccccc3)sc(C#N)c2NC(=O)CNc2ccc(Cl)cc2)cc1	HepG2	annexin V-FITC/PI	concentration not given	–	viable cells	81.4 ± 9.3%
CC(=O)Nc1ccc(/C(C)=N/N=c2\sc(C(C)=O)nn2-c2ccc(C)cc2)cc1	HepG2	MTT	0.312 µM	–	cytotoxicity	0.0454%
COc1ccc(-n2nc(C(C)=O)s/c2=N\N=C(/C)c2ccc(NC(=O)c3ccccc3)cc2)cc1	HepG2	–	1.25 µM	–	viability	25.6%
CCc1ccc(CCOc2ccc(CC3SC(=O)NC3=O)cc2)nc1 (stereo not drawn)	HepG2	CellTiter-Glo, item: cellular ATP	24 h, distribution mode 2	–	point of departure	81.3 µM
Cc1csc(-n2c(C)cc(C(=O)CCl)c2C)n1	UCHL1	covalent, intact protein LC-MS	12.5 µM	–	labelling	31.9%
CCOC(=O)c1nn(-c2cccc(Cl)c2)/c(=N/N=C(\C)c2ccc(NC(=O)c3ccccc3)cc2)s1	HepG2	MTT	0.312 µM	–	cytotoxicity	96.5%
COc1ccc(NC(=O)c2c(Nc3ccccc3)sc(C(=O)NN=Cc3ccc(OC)c(O)c3)c2NC(C)=O)cc1	HepG2	flow cytometry	IC50, 24 h	–	cells in G2/M	19.4 ± 2.24%
CCOC(=O)/C=C\C(=O)OCC	HepG2	item: glutathione	24 h, distribution mode 1	–	point of departure	10.5 µM
CC(=O)c1nn(-c2ccc(C)cc2)/c(=N/N=C(\C)c2ccc(NC(=O)c3ccccc3)cc2)s1	HepG2	MTT	10 µM	–	cytotoxicity	93.2%
